Assay results collected from several papers.
Each line is one published result; not all experiments were run side by side.
Chain of UniProt Q13177 (whole entry, looked up): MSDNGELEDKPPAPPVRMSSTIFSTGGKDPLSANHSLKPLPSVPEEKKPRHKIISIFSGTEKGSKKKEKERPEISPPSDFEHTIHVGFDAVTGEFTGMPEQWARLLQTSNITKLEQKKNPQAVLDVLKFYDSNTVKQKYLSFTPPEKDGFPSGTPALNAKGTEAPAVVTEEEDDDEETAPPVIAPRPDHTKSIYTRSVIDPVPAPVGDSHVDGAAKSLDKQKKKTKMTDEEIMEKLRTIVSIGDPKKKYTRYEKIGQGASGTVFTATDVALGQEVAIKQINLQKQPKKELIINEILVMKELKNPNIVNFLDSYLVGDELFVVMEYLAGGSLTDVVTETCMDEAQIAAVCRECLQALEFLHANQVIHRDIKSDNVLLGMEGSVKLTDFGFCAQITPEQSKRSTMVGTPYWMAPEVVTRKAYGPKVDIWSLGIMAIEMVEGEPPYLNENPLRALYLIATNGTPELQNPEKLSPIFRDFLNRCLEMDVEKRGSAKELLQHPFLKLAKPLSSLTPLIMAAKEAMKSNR
Chain of UniProt P10721 (whole entry, looked up): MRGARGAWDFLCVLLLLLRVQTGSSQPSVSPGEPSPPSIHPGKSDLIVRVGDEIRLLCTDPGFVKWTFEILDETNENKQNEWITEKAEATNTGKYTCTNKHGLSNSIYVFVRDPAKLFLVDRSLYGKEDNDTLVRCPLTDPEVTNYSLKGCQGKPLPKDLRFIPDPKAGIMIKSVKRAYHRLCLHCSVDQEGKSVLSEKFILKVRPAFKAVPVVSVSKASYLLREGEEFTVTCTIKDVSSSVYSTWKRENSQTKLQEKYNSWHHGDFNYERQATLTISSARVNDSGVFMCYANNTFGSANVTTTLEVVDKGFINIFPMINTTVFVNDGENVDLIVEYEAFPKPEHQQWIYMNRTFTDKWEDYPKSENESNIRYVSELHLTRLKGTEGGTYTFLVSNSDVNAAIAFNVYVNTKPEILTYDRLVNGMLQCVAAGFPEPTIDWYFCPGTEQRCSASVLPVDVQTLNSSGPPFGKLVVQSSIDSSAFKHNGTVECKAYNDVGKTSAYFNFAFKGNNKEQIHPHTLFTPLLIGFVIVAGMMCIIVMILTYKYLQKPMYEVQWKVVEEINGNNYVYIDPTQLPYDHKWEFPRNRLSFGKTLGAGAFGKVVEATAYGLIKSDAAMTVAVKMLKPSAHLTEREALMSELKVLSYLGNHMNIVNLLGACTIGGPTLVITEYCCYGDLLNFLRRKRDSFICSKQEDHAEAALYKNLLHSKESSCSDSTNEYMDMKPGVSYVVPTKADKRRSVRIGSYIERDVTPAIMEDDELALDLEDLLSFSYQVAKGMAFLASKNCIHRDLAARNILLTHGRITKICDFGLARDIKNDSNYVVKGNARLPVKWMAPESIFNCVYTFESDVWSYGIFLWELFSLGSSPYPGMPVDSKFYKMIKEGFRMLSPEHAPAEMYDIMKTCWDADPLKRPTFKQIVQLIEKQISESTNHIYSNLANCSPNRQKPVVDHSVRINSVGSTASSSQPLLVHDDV
Chain of UniProt P57058 (whole entry, looked up): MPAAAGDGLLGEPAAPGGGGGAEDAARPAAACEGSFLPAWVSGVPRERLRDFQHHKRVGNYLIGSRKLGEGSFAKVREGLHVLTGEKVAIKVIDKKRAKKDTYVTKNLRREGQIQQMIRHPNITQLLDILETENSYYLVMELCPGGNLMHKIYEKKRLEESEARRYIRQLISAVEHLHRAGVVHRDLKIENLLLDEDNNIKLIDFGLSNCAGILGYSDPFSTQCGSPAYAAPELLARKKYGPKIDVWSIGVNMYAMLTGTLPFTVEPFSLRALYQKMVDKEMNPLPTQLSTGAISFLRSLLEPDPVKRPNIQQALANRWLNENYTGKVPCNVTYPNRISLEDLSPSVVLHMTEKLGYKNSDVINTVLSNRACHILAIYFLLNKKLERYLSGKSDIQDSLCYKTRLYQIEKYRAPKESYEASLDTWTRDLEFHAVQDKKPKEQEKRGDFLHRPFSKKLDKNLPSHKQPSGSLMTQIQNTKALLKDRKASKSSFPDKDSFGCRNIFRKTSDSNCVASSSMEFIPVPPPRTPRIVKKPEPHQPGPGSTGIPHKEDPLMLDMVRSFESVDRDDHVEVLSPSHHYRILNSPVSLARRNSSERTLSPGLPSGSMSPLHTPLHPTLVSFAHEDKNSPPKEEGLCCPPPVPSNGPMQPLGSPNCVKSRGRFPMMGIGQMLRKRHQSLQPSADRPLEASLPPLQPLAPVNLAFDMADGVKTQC
Chain of UniProt Q14680 (whole entry, looked up): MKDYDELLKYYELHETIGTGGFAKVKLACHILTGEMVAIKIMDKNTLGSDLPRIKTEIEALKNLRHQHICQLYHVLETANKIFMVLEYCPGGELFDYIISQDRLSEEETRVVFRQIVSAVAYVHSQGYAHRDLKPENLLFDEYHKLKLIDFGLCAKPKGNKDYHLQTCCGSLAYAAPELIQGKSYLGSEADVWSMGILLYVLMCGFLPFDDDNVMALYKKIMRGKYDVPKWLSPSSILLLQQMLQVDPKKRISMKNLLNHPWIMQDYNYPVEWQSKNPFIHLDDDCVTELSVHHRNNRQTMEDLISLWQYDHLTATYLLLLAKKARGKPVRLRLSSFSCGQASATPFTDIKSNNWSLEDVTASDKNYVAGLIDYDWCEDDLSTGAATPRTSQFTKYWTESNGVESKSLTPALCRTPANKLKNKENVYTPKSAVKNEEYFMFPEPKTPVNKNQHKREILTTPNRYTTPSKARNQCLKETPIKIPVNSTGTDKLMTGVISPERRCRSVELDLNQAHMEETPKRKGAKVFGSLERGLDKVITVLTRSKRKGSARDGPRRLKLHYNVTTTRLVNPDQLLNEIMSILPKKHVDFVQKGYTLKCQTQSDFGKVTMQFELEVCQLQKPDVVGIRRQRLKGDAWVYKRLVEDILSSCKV

SMILES	tested on	assay	system	setting	quantity	result
O=C(c1ccc(F)cc1)C1CCN(CCn2c(=O)[nH]c3ccccc3c2=O)CC1		metabolic stability	dog, liver microsomes		half-life	0.753 h
C=CCn1c(=O)c2cnc(Nc3ccc(N4CCN(C)CC4)cc3)nc2n1-c1ccc2c(n1)[C@@](O)(CC)CC2		metabolic stability	dog, liver microsomes		half-life	0.3 h
CCOc1ccc2ccc(=O)oc2c1		metabolic stability	male beagle dog, hepatocytes	1 µM	half-life	< 0.25 h
NS(=O)(=O)OC[C@@H]1C[C@@H](n2ccc3c(N[C@H]4CCc5ccccc54)ncnc32)C[C@@H]1O			human, plasma	intravenous, 25 mg/m², patients	half-life	5.2 h
CNc1ncc2c(/C=C/C(=O)N3CCC(OC)CC3)nn(Cc3cccc(C(F)(F)F)c3)c2n1	MELK (Homo sapiens, UniProt Q14680)	enzyme activity, inhibitor, radiometric		1 µM	remaining activity	104%
Cc1cc([C@@H](C)Nc2ccccc2C(=O)O)c2nc(N3CCC(F)(F)CC3)c(C#N)c(=O)n2c1	KIT (Homo sapiens, UniProt P10721)	binding, competition with immobilised ligand		1 µM	remaining binding	99%
C=CC(=O)N1CCC(COCC(=O)N2CCN(c3nc(-c4cnc(N)nc4C(F)F)nc(N4CCOC[C@@H]4C)n3)CC2)CC1	HUNK (Homo sapiens, UniProt P57058)	binding, competition with immobilised ligand		1 µM	remaining binding	79%
O=C(COc1ccc(Cl)cc1)NC12CC(c3nnc([C@H]4C[C@@H](OC(F)(F)F)C4)o3)(C1)C2			human, plasma	oral, 260 mg, multiple doses, once daily, healthy volunteers	half-life	39.3 h
COc1ccc2c(c1)CN(C(=O)CCN1CCC(Cc3ccccc3)CC1)CC[S@@+]2[O-]			male human, plasma	intravenous, 0.05 mg/kg, single dose, healthy volunteers	half-life	5.31 h
O=C1CC[C@H](N2Cc3cc(N4CCN(CC5CCN(c6ccc([C@@H]7c8ccc(O)cc8CC[C@@H]7c7ccccc7)cc6)CC5)CC4)ccc3C2=O)C(=O)N1			male Sprague-Dawley rat, plasma	intravenous, 5 mg/kg, single dose, fed	half-life	2.73 h
COc1cc(-c2cncc3c2CN(C)Cc2cc(N4CCNCC4)ccc2-3)cc(OC)c1OC	PAK2 (Homo sapiens, UniProt Q13177)	enzyme activity, inhibitor		1 µM	remaining activity	101%
O=c1ccc2ccc(O)cc2o1		metabolic stability	dog, liver microsomes		half-life	0.0335 h

A few entries again:
SMILES	tested on	assay	system	setting	quantity	result
CNc1ncc2c(/C=C/C(=O)N3CCC(OC)CC3)nn(Cc3cccc(C(F)(F)F)c3)c2n1	MELK (Homo sapiens, UniProt Q14680)	enzyme activity, inhibitor, radiometric		1 µM	remaining activity	104%
